Published values gathered from unrelated publications.
Each numbered part is a random draw from the data of one study; scales do not carry over between parts. Values joined by “and” are separate records of one study, mostly repeats; a detail may differ. Substitutions count along the parent as printed.

Block 1 — target: CCND3, cyclin fold, Cln2 fusion (human); method: yeast growth competition, sequencing; sample: yeast; setting: weak parent motif; baseline: not given; direction: higher = stronger binding; measurement: normalised enrichment score
Starting sequence: RBL2 docking peptide (human); STTRRRLFVENDS
STTRRRLFVENDF [S13F]: 0.134
SMTRRRLFVENDS [T2M]: 0.145
VTTRRRLFVENDS [S1V]: 0.0896
KTTRRRLFVENDS [S1K]: 0.0478
STTRRRLFVEFDS [N11F]: 0.135
STFRRRLFVENDS [T3F]: 0.00426
STTRERLFVENDS [R5E]: 0.111
RTTRRRLFVENDS [S1R]: 0.268

Block 2 — method: protein-binding microarray; molecule type: double-stranded DNA, one strand shown; sample: in vitro; tested at: not given; direction: higher = stronger binding; measurement: E-score
Target: Transcription factor SOX-2, HMG box (SOX2, Homo sapiens, UniProt P48431, residues 19-118)
Chain of UniProt P48431 (19-118, looked up): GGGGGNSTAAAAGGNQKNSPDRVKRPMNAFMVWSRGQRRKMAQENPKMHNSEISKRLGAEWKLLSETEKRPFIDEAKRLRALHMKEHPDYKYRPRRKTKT
Setting: k-mer, scored over probes, only values ≥0.25
AACAATC: 0.435
GAATTAA: 0.335
GAATGTA: 0.28
AATAATG: 0.396
CTTTGTC: 0.272
AATTAGC: 0.336
AGATAAT: 0.373
AATTGAA: 0.423
CAAATTA: 0.315
AAAAAAT: 0.307
AACATAA: 0.253
AATGATA: 0.319

Block 3 — method: protein-binding microarray; molecule type: double-stranded DNA, one strand shown; sample: in vitro; tested at: 940 nM top; setting: 60-bp whole probe; added: salmon DNA 0.4 mg/ml; baseline: random background probes; direction: higher = stronger binding; measurement: fitted relative affinity; all sequences stand within: GCCTAGCAC … GTCTTGATTCGCTTGACGCTGCTG
Target: Interferon regulatory factor 5, full length, phosphomimetic (IRF5, Homo sapiens, UniProt Q13568-2, residues 1-514, S451D/S453D/S456D/S462D)
TCAGTTATCACTTCCAAACTGTGCTAG: 0.661 z-score
TACGGTATCGGTCTCGGGACGTGCTAG: 7.38 z-score
TCATATTAAAATTTAATACTGTGCTAG: 0.168 z-score
TTAGAACTGGGTCTCGATTAGTGCTAG: 1.15 z-score
TCAGGGCTCTCTTCTGCTACTGTGCTA: -0.0899 z-score
GACGGTTTCTACTATCGGGACGTGCTA: 2.83 z-score
GACGGTATCGACTTTCGGGACGTGCTA: 4.12 z-score
TAAGATTTCAGTTCCGATTAGTGCTAG: 1.72 z-score
TTAGGTTTCGACTTTCGGTTGGTGCTA: 9.34 z-score
TTCGATATCGGGTTTCGATTAGTGCTA: 5.95 z-score
AGTTGTTTTAAATTCTAATTGTGCTAG: 0.261 z-score
TTAGATATCAGTCTCGACTAGTGCTAG: 1.45 z-score
GTGTTTTTCTCCTATTTAAGAGTGCTA: 1.69 z-score
GACGATATCGACTTTCGGGACGTGCTA: 1.05 z-score
TTACGTCTCGGTTTCGGTTAGTGCTAG: 10.6 z-score

Single results of other studies
PhoQ, residues 284 288 289 292 302 303 SACGEM
fold induction (PhoP, residues 12 14 15 18 19 LWHSL (Escherichia coli, UniProt P23836); Sort-seq, item: YFP reporter; E. coli; PhoQ-PhoP variant library, added: 10 µM Mg2+; baseline: high Mg2+ state, higher = stronger signaling): 11.3 and 15.5

Excerpt of the above (block 3):
TTAGAACTGGGTCTCGATTAGTGCTAG: 1.15 z-score
TCAGGGCTCTCTTCTGCTACTGTGCTA: -0.0899 z-score
GACGGTTTCTACTATCGGGACGTGCTA: 2.83 z-score
